Results pooled from the literature.
Each line is one published result; not all experiments were run side by side. Numbers after ± are the reported error.

| SMILES | cell line | test | setting | IC50 [µM] |
| --- | --- | --- | --- | --- |
| Cc1ncsc1-c1ccc(C(CO)NC(=O)C2CC(O)CN2C(=O)C(C(C)C)n2cc(-c3ccc(COc4c(-c5c(C)c(F)cc6[nH]ncc56)c(C5CC5)cc5c(N6CC7CC6CN7)nc(OC6CCOCC6)nc45)cc3)nn2)cc1 (stereo not shown) | AsPC-1 | ERK1/2 phosphorylation, inhibitor, In-Cell ELISA | 24 h | 0.014 |
| C=CC(OC(C)=O)c1cc(OC)cc(OC)c1 (stereo not shown) | HSC-4 | MTT | 24 h | > 50 |
| C=C[CH2][Pd-]([Cl])[Cl].Cc1cc(C)c(-n2c[n+](-c3c(C)cc(C)cc3C)c3c2-c2cccc4cccc-3c24)c(C)c1 | 2008 | cell growth, MTT | 72 h | 2.7 ± 0.6 |
| CC(=O)O[C@@H]1CC[C@@]2(C)[C@@H](CC[C@]3(C)[C@@H]2C(=O)C=C2[C@@H]4[C@@H](C)[C@H](C)CC[C@]4(C)CC[C@]23C)[C@@]1(C)C(=O)NCCNC(=O)CCCCBr | HBE | cell growth or viability, MTT | 48 h | 4.88 |
| COc1c(C)c(OS(=O)(=O)c2ccccc2)c(C)c(O)c1C(=O)/C=C/c1ccccc1 | FaDu | cell growth or viability, SRB | 72 h | 27 |
| CC1=CC(C(F)(F)F)=[O+][Pt-2]([NH3+])([NH3+])[O]1.CC1=CC(C(F)(F)F)=[O+][Pt-2]([NH3+])([NH3+])[O]1.O=S(=O)([O-])[O-] (stereo not shown) | U2OS | cell growth or viability, MTT | – | 4.1 |
| O=C(c1ccncc1)N1N=C2/C(=C/c3ccc4ccccc4c3)CCCC2C1c1ccc2ccccc2c1 (stereo not shown) | human erythrocytes | membrane protection, HRBC membrane stabilization | – | 0.05 |
| COc1ccc2cc3[n+](cc2c1OCc1cn(Cc2ccccc2C#N)nn1)CCc1cc2c(cc1-3)OCO2 | SW1990 | cell growth or viability, MTT | – | 81 |
| c1ccc(-c2nc(-c3cccnc3)[nH]c2-c2ccccc2)cc1 | L929 | cell growth or viability, SRB | – | 83.8 |
| CC(=O)OC[C@@]12CCC[C@@](C)(CO)[C@H]1CC[C@@]13C[C@@H](C[C@H](O)[C@H]12)[C@H](C)C3=O | HBE | cell growth or viability, MTT | – | > 20 |
| N#C/C(=C\c1cn(-c2ccccc2)nc1-c1ccc([N+](=O)[O-])cc1)c1nc2ccccc2[nH]1 | SW1990 | cell growth or viability, ATP luminescence | 72 h | 61.8 |
| COc1ccc(C[C@H]2COC(=O)[C@@H]2Cc2ccc(OCCCCCCCCCC(=O)NO)c(OC)c2)cc1OC | Kasumi 1 | cell growth or viability, CCK-8 | 48 h | > 5 |
| C=CC(=C)CC[C@]1(C)[C@H](C)CC[C@@]23C(=C[C@H](OC(=O)CCCCC)C[C@@H]12)[C@@H](OC(C)=O)O[C@H]3OC(C)=O | KB | cell growth or viability, SRB | – | 0.56 |
| CC(=O)O[C@@H]1CC[C@@]2(C)[C@@H](CC[C@]3(C)[C@@H]2C(=O)C=C2[C@@H]4[C@@H](C)[C@H](C)CC[C@]4(C)CC[C@]23C)[C@@]1(C)C(=O)NCCNC(=O)CC[P+](c1ccccc1)(c1ccccc1)c1ccccc1 | HBE | cell growth or viability, MTT | 48 h | 18.3 |
| CC(C)c1cccc(C(C)C)c1-n1c(Cl)c(Cl)n(-c2c(C(C)C)cccc2C(C)C)c1=[Se].[Cl][Au] | LoVo | cell growth or viability, MTT | 72 h | 3.9 |
| CC1CC(=O)N(CCCCN)N=C1c1ccc(NC(=O)N2Cc3ccncc3C2)cc1 (stereo not shown) | MDA-MB-453 | cell growth or viability, ATP luminescence | – | 0.00018 |
| CC(C)Cc1ccc(C(C)C(=O)[O][Pt]([NH2])([NH2])([Cl])([Cl])[O]C(=O)CCCc2ccccc2)cc1 (stereo not shown) | BCPAP | cell growth or viability, MTT | 72 h | 0.08 |
| N=C(N/N=C/c1ncc[nH]1)N/N=C/c1ncc[nH]1 | KP-4 | cell growth or viability, crystal violet | 72 h | 0.28 |
| CCN(C(=O)c1cc(F)ccc1Oc1nncnc1N1CCC2(C1)CN([C@H](CCCN(C)CCOC)C(C)C)C2)C(C)C | RS4;11 | cell growth, live-cell imaging spheroids | 8 days | 0.04 |

For quick reference, copied from above:
| SMILES | cell line | test | setting | IC50 [µM] |
| --- | --- | --- | --- | --- |
| COc1ccc2cc3[n+](cc2c1OCc1cn(Cc2ccccc2C#N)nn1)CCc1cc2c(cc1-3)OCO2 | SW1990 | cell growth or viability, MTT | – | 81 |
| c1ccc(-c2nc(-c3cccnc3)[nH]c2-c2ccccc2)cc1 | L929 | cell growth or viability, SRB | – | 83.8 |
| CC(=O)OC[C@@]12CCC[C@@](C)(CO)[C@H]1CC[C@@]13C[C@@H](C[C@H](O)[C@H]12)[C@H](C)C3=O | HBE | cell growth or viability, MTT | – | > 20 |
